Published values collected from several papers.
Lines come from different studies, so protocols differ. ± marks the error that the study gave.
GATD3: Glutamine amidotransferase-like class 1 domain-containing protein 3, mitochondrial (GATD3, Homo sapiens, UniProt P0DPI2)
Chain of UniProt P0DPI2 (whole entry, looked up): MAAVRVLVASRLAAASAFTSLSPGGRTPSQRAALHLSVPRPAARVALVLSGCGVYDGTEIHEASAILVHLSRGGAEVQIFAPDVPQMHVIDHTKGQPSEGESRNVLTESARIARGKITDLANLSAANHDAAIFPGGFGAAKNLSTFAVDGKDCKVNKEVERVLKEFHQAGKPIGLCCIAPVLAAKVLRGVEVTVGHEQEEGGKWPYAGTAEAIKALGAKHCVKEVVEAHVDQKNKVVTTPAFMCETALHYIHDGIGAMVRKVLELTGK
Ugcg: Ceramide glucosyltransferase (Ugcg, Mus musculus, UniProt O88693)
Chain of UniProt O88693 (whole entry, looked up): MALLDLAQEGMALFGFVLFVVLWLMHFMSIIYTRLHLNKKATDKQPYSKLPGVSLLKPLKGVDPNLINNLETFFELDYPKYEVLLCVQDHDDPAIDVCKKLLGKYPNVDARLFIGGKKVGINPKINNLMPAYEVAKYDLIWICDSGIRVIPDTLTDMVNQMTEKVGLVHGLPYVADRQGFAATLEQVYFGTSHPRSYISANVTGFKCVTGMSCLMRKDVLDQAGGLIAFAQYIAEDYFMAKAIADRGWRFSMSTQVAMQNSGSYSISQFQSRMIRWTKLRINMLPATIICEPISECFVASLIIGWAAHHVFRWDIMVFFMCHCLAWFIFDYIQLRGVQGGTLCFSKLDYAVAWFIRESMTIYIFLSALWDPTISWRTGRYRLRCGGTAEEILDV
Tumor necrosis factor receptor superfamily member 1A extracellular domain: Tumor necrosis factor receptor superfamily member 1A, extracellular domain (Homo sapiens, UniProt P19438)
Chain of UniProt P19438 (whole entry, looked up): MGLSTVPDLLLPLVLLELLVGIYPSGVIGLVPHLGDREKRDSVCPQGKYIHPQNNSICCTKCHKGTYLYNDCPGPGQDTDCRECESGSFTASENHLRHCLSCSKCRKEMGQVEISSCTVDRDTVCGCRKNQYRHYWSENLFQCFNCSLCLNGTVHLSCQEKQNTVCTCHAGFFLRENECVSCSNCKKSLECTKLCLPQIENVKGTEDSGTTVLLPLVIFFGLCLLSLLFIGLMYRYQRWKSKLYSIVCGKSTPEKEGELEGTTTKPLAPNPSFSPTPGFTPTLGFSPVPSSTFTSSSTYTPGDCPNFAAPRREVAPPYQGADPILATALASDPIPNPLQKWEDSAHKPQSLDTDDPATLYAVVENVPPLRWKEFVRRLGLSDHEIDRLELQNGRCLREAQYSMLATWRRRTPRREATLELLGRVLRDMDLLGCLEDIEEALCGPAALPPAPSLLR
ALDH1B1: Aldehyde dehydrogenase X, mitochondrial (ALDH1B1, Homo sapiens, UniProt P30837)
Chain of UniProt P30837 (whole entry, looked up): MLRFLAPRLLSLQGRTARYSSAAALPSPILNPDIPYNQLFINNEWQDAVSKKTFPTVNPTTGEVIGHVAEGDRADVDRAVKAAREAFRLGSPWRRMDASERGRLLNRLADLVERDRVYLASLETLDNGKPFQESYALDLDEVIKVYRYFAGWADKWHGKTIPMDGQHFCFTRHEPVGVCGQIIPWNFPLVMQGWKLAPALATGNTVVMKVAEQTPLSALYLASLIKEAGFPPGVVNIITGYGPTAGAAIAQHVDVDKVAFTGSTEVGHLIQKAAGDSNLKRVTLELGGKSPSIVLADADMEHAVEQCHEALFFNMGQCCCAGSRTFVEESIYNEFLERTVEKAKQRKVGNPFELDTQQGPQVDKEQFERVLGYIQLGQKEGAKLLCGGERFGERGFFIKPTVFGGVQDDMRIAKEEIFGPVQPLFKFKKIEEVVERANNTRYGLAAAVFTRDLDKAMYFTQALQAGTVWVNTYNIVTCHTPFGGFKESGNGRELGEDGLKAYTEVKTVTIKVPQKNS
CA2: Carbonic anhydrase 2 (CA2, Homo sapiens, UniProt P00918)
FKBP4 FK1 domain: Peptidyl-prolyl cis-trans isomerase FKBP4, FK1 domain (FKBP4, Homo sapiens, UniProt Q02790)
Chain of UniProt Q02790 (whole entry, looked up): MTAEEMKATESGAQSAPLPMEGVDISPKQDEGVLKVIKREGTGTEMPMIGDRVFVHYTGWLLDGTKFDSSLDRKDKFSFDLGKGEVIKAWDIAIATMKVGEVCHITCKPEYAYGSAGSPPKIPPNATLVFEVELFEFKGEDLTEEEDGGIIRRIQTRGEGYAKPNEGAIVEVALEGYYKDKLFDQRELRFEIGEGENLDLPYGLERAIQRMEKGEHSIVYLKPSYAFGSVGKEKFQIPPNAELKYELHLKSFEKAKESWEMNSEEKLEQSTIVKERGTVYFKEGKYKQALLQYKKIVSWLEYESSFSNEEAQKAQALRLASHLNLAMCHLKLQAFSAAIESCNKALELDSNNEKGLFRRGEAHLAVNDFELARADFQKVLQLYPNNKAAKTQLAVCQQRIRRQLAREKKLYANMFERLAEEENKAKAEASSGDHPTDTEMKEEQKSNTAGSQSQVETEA
Chain of UniProt P01317 (whole entry, looked up): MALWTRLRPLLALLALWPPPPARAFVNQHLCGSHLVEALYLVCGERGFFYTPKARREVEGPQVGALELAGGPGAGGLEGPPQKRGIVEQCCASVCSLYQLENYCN
Chain of UniProt Q96AB3 (whole entry, looked up): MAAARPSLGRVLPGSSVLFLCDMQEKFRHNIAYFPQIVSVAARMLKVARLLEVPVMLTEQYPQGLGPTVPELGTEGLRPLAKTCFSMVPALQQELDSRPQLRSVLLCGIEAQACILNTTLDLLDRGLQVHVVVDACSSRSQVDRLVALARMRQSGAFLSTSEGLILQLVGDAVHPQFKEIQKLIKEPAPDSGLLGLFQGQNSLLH
Chain of UniProt Q9SZU7 (whole entry, unmodified, looked up): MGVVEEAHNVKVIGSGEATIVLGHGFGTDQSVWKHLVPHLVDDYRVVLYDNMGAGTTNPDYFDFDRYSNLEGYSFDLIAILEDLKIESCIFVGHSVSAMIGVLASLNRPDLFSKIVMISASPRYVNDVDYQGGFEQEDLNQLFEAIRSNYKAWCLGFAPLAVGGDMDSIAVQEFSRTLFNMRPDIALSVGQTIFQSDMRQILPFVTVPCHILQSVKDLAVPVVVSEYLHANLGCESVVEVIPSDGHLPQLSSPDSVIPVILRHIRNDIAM
Chain of UniProt Q16611 (whole entry, looked up): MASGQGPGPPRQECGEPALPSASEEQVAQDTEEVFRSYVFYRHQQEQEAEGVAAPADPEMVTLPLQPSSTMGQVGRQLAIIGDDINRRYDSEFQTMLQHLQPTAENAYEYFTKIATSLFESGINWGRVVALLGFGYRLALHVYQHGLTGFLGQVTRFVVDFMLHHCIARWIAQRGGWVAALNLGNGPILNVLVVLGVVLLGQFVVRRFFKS
Chain of UniProt Q16512 (whole entry, looked up): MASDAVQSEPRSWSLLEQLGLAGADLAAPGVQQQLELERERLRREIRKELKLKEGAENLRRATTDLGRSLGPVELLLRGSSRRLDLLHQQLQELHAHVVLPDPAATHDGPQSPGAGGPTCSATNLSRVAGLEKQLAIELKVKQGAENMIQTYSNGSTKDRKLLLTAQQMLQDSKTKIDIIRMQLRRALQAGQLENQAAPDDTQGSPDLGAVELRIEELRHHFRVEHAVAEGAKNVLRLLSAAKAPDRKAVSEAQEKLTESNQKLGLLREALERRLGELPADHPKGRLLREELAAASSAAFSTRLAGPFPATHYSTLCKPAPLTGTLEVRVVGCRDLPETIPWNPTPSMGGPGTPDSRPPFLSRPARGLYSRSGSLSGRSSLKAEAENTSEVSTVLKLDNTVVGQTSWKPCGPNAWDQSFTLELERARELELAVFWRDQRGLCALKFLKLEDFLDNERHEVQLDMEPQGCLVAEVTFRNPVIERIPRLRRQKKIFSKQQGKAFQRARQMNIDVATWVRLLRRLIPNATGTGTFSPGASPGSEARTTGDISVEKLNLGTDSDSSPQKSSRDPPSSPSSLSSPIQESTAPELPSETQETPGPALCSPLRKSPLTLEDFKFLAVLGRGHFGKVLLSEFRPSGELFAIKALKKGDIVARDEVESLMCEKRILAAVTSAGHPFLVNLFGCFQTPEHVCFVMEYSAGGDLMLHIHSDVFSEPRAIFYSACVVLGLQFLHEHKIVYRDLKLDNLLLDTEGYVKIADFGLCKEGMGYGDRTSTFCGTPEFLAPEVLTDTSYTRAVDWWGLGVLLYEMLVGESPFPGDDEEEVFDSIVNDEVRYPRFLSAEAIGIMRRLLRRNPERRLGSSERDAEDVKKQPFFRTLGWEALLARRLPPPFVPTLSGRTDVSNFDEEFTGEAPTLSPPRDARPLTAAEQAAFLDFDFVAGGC
Chain of UniProt P62258 (whole entry, looked up): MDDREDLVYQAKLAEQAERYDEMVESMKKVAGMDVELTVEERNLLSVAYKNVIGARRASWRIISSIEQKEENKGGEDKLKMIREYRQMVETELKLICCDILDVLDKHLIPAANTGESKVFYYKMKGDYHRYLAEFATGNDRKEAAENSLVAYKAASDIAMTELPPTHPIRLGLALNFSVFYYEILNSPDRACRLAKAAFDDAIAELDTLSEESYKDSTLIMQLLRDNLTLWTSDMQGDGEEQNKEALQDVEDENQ
Chain of UniProt P07737 (whole entry, looked up): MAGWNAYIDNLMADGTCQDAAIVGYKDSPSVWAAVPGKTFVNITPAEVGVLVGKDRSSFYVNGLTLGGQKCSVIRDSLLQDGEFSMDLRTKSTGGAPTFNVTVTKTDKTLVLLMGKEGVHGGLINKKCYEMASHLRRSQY
Chain of UniProt O96017 (whole entry, looked up): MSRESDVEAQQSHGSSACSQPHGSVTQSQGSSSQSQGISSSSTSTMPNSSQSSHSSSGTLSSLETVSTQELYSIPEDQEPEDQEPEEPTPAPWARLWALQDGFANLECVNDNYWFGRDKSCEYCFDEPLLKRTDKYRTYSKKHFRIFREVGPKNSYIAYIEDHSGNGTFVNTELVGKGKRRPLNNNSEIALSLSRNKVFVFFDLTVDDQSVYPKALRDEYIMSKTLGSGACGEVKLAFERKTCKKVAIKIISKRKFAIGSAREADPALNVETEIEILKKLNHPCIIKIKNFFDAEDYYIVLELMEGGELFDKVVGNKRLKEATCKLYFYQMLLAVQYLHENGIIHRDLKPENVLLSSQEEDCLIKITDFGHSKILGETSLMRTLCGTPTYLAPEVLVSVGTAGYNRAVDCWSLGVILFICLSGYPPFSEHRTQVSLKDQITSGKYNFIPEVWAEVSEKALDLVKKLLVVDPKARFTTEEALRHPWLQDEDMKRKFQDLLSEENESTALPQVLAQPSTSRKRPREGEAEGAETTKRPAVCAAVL

For `CC[C@H](C)[C@H](NC(=O)[C@H](Cc1ccc(O)cc1)NC(=O)[C@H](CC(N)=O)NC(=O)[C@@H](NC(=O)[C@H](CCCNC(=N)N)NC(=O)[C@H](CC(=O)O)NC(=O)CNC(=O)[C@@H](NC(=O)[C@H](CCC(=O)O)NC(=O)[C@H](CCCCN)NC(=O)[C@@H](NC(=O)[C@H](CCC(N)=O)NC(=O)[C@@H](NC(=O)[C@H](CS)NC(=O)[C@H](CCSC)NC(=O)[C@H](CCC(N)=O)NC(=O)[C@H](CCC(=O)O)NC(=O)[C@@H](NC(=O)[C@H](CCCNC(=N)N)NC(=O)[C@H](CCC(=O)O)NC(=O)[C@H](Cc1ccccc1)NC(C)=O)C(C)C)[C@@H](C)CC)[C@@H](C)CC)C(C)C)C(C)C)C(=O)N[C@@H](CCCCN)C(=O)N[C@@H](CCCNC(=N)N)C(=O)N[C@@H](CO)C(=O)N[C@@H](CC(C)C)C(N)=O`, the Kd was > 20 µM (BAK1 (Homo sapiens, UniProt Q16611); binding, FP; pH 8).
`COc1cc(-c2ccc3c(c2)OCCN3C)cc(C=O)c1O` gave a Kd of 13.3 µM (Serine/threonine-protein kinase/endoribonuclease IRE1 (Mus musculus, UniProt Q9EQY0, N772Y); microscale thermophoresis).
For `COc1ccc(Cn2ccc3ccc(C(=O)NO)cc32)cc1`, the Kd was > 30.2 µM (GATD3; inhibitor, competition pulldown; SW620 and MV4-11 lysate; 1 h).
For `Cc1cccc2c1N(C(=O)n1ccnn1)CC2`, the Kd was 10.9 µM (KAI2 (Arabidopsis thaliana, UniProt Q9SZU7, F134A); ITC; F134A mutant, mean).
The Kd of `CCc1nc2cc3ccccc3cc2cc1C(=O)N1CCC[C@H]1C(=O)N[C@@H](C/C=C\C[C@H](NC(=O)[C@@H]1CCCN1C(=O)c1cc2cc3ccccc3cc2nc1CC)C(=O)N[C@@H](CCCCN)C(=O)NCCCN)C(=O)N[C@@H](CCCCN)C(=O)NCCCN` is reported as 0.043 µM ((CUG)2 RNA; SPR).
`CCCCCOCCCCCN1C[C@H](O)[C@@H](O)[C@H](O)[C@@H]1CO` has an IC50 of 0.15 µM (Ugcg; enzyme activity, inhibitor, fluorescence).
With `Cc1ccc(-c2ccnc(C(=O)O)c2)cc1` the Kd was 1020 ± 120 µM (Tumor necrosis factor receptor superfamily member 1A extracellular domain; binding, SPR OneStep).
With `CCCCOc1ccc(CC(=O)NO)cc1` the Kd was 1.86 µM (ALDH1B1; binding, SPR).
`O=C(O)CCC(NC(=O)NC(CCCCNC(=O)C(Cc1ccc2ccccc2c1)NC(=O)C1CCC(CNC(=O)CCCCCNC(=S)Nc2ccc3c(c2)C(=O)OC32c3ccc(O)cc3Oc3cc(O)ccc32)CC1)C(=O)O)C(=O)O` (centres unmarked) gave a Kd of 0.00053 µM (FOLH1 (Homo sapiens, UniProt Q04609); cell-free assay, FP).
With `C=CC(=O)N1C[C@H](C)N(c2nc(OC[C@@]34CCCN3C[C@H](F)C4)nc3c(F)c(-c4ccc(F)c5sc(N)c(C#N)c45)c(C(F)(F)F)cc23)C[C@H]1C` the Kd was 0.00188 ± 0.00068 µM (GTPase KRas, GDP-bound (KRAS, Homo sapiens, UniProt P01116, A146T); SPR).
For `CCC1C=CC2CCN(C(=O)C3CCC4C=CC5(CCCN5C(=O)C(Cc5ccccc5Cl)NC(C)=O)C(=O)N43)C2C(=O)N1CC(=O)OC` (centres unmarked), the Kd was 630 µM (Profilin-1 (PFN1, Homo sapiens, UniProt P07737); binding, NMR).
`O=C(O)c1ccnc(-c2ccc(F)cc2)c1` gave a Kd of 1450 ± 40 µM (Tumor necrosis factor receptor superfamily member 1A extracellular domain; binding, SPR OneStep).
For `COC1(C2=NCCN2)COc2ccccc2O1` (centres unmarked), the Kd was 0.00174 ± 0.00021 µM (α2-adrenergic receptor chimera; [3H]compound saturation binding; HEK293 membranes; α2a(NT)/α2c(TM1-CT)-AR chimera).
`CCCC(=O)Nc1ccc(-c2ccnc(C(=O)O)c2)cc1` has a Kd of 1030 ± 50 µM (Tumor necrosis factor receptor superfamily member 1A extracellular domain; binding, SPR OneStep).
With `COc1ccc(C(=O)NO)cc1NC(=O)c1ccc(-c2ccccc2)cc1` the Kd was > 30.2 µM (Isochorismatase domain-containing protein 2 (ISOC2, Homo sapiens, UniProt Q96AB3); inhibitor, competition pulldown; SW620 and MV4-11 lysate; 1 h).
`NS(=O)(=O)c1ccc(CN2C(=O)c3ccc(N4CCOCC4)cc3C2=O)cc1` gave a Kd of 0.24 µM (CA2; binding).
`CC(=O)N[C@@H](CCCNC(=N)N)C(=O)N[C@H](C(=O)N[C@@H](CCCCN)C(=O)N[C@@H](CO)C(=O)N[C@@H](CCCNC(=N)N)C(=O)N[C@H](C(=O)N[C@@H](Cc1c[nH]c2ccccc12)C(=O)N[C@@H](C)C(=O)NCC(=O)N[C@@H](CCC(=O)O)C(=O)N[C@@H](CCCCN)C(=O)N[C@@H](CO)C(=O)N[C@@H](CCCCN)C(=O)N[C@@H](CCCNC(=N)N)C(N)=O)[C@@H](C)OP(=O)(O)O)[C@@H](C)O` has a Kd of 0.144 µM (14-3-3 protein epsilon (Homo sapiens, UniProt P62258); binding, SPR; pH 7.4).
`O=C(NC1CCCc2c1[nH]c1ccccc21)c1n[nH]c2c1CCC2` (centres unmarked) has a Kd of 0.24 µM (PHF8 (Homo sapiens, UniProt Q9UPP1); binding).
`F[B-]1(F)OC(c2ccc(-n3c4ccccc4c4ccccc43)cc2)=Nc2sc3cc(C(F)(F)F)ccc3[n+]21` has a Kd of 0.243 ± 0.086 µM (Insulin, amyloid fibrils (INS, Bos taurus, UniProt P01317); binding, fluorescence saturation).
With `C=CCN=S(=O)(c1cc(Cl)cc(Cl)c1)N1C2CCCC1C(C=C)CN(Cc1ccccn1)C2=O` (centres unmarked) the Kd was > 40 µM (FKBP4 FK1 domain; competitive fluorescence polarization; protein 10 nM, with: 1 nM tracer).
`NS(=O)(=O)c1ccc(N2C(=O)c3ccc(N4CCOCC4)cc3C2=O)cc1` gave a Kd of 0.24 µM (CA2; binding).
With `O=C1Nc2ccc(Cl)cc2[C@@](C#CC2CC2)(C(F)(F)F)O1` the Kd was 13.4 µM (ALDH1B1; binding, SPR).
`O=C(NO)c1cnc(NC2(c3cccc(F)c3)CCCCC2)nc1` gave a Kd of > 30.2 µM (GATD3; inhibitor, competition pulldown; SW620 and MV4-11 lysate; 1 h).
`Nc1ncc(-c2cc(-c3cnn(CC(F)(F)F)c3)ncc2F)nc1C(=O)NC1CNCC(F)C1` (centres unmarked) gave a Kd of 0.12 µM (CHEK2 (Homo sapiens, UniProt O96017); binding, competition with immobilised ligand).
The Kd of `CCc1nc2cc3ccccc3cc2cc1C(=O)N1CCC[C@H]1C(=O)N[C@@H](CCC/C=C/CCC[C@H](NC(=O)[C@@H]1CCCN1C(=O)c1cc2cc3ccccc3cc2nc1CC)C(=O)N[C@@H](CCCCN)C(=O)NCCCN)C(=O)N[C@@H](CCCCN)C(=O)NCCCN` is reported as 0.768 µM ((CUG)2 RNA; SPR).
With `O=C(O[C@@H]1Cc2c(O)cc(O)cc2O[C@@H]1c1cc(O)c(O)c(O)c1)c1cc(O)c(O)c(O)c1` the Kd was 4.22 ± 0.68 µM (grass carp GPBAR1; binding, microscale thermophoresis; HEK-293T lysate).
`C[n+]1c(/C=C/c2ccc(N(c3ccccc3)c3ccccc3)cc2)cc(/C=C2\Sc3ccccc3N2CCCN2CCCC2)c2ccccc21` gave a Kd of 36.5 µM (Telo21 DNA; isothermal titration calorimetry; pH 7.4, 25 °C, 2% DMSO).
For `C=C[C@H]1CN(Cc2ccccn2)C(=O)[C@@H]2CCC[C@H]1N2Sc1cc(Cl)cc(Cl)c1`, the Kd was > 40 µM (FKBP4 FK1 domain; competitive fluorescence polarization; protein 10 nM, with: 1 nM tracer).
`Cc1c[nH]c2nccc(-c3ccc(C(=O)N[C@@H]4c5c(F)cc(C(F)F)cc5C[C@@H]4O)cn3)c12` has a Kd of 1.6 µM (PKN1 (Homo sapiens, UniProt Q16512); binding, competition with immobilised ligand).
For `OC[C@@H]1[C@@H](O)[C@H](O)[C@@H](O)CN1CCCCCOCc1ccccc1`, the IC50 was 0.75 µM (Ugcg; enzyme activity, inhibitor, C6-NBD-ceramide in situ; RAW264.7; with: C6-NBD-ceramide).
The Kd of `C=CC1CN(Cc2ccccn2)C(=O)C2CCCC1N2S(=O)(=Nc1ccccc1)c1cc(Cl)cc(Cl)c1` (centres unmarked) is reported as > 40 µM (FKBP4 FK1 domain; competitive fluorescence polarization; protein 10 nM, with: 1 nM tracer).
The Kd of `O=C(O)c1ccc(-c2ccc3[nH]ccc3c2)nn1` is reported as 198 ± 87 µM (Tumor necrosis factor receptor superfamily member 1A extracellular domain; binding, SPR OneStep).
